Experimental data of several laboratories.
Every numbered part comes from another study and shows a few of its results, in no order.

Study 1
Target: Interferon regulatory factor 5, full length, phosphomimetic (IRF5, Homo sapiens, UniProt Q13568-2, residues 1-514, K96S/S451D/S453D/S456D/S462D)
Technique: protein-binding microarray
Form: double-stranded DNA, one strand shown
Sample: in vitro
Concentration: 250 nM
Setting: 60-bp whole probe
Added: salmon DNA 0.4 mg/ml
Baseline: random background probes
Direction: higher = stronger binding
Sequence | log fluorescence [z-score]
GCCTAGCACTGTGGTCTGTTTCTGATATGGTGCTAGGTCTTGATTCGCTTGACGCTGCTG | 0.682
GCCTAGCACTTAGGTTTCGATATCGGTTAGTGCTAGGTCTTGATTCGCTTGACGCTGCTG | 10.4
GCCTAGCACTTAGATCTCAGTTTGGATTAGTGCTAGGTCTTGATTCGCTTGACGCTGCTG | 0.201
GCCTAGCACTTAGATTTCAGTTCCGATTGGTGCTAGGTCTTGATTCGCTTGACGCTGCTG | 2.56

Study 2
Target: Phosphate system positive regulatory protein PHO4, full length, GST-tagged (PHO4, Saccharomyces cerevisiae, UniProt P07270, residues 1-312)
Technique: competition protein-binding microarray
Form: double-stranded DNA, one strand shown
Sample: in vitro
Concentration: 2 µM
Setting: whole 60-bp probe, lowest competitor level
Added: Cbf1 competitor, 0.05 µM
Direction: higher = stronger binding
Constant ends, left off below: … GTCTTGATTCGCTTGACGCTGCTG
Target sequence (chain): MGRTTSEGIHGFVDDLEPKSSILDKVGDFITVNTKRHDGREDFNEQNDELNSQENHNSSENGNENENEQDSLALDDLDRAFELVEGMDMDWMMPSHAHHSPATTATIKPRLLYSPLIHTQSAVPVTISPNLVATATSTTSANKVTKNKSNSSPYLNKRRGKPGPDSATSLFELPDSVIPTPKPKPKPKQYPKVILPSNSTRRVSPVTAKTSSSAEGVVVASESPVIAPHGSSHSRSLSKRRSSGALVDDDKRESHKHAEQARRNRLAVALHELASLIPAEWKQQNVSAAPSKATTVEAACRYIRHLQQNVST
Sequence | fluorescence intensity [a.u.]
TAAGTTCCTTCCCAACACGTGGATTAGAATAGGTAG | 16400
TGCGCAACAACTTGTCACTAGACTTTATGTCTAGAA | 2880
CTACGGAATAGCGGCCACGTTTCCGTAGGTTACTAT | 13700
AAGTTCGCCAAGTTACACATGGGTACTGATGATGTC | 7630
TTAAGTTTGTCACCGCTCGTGGCCGCTGTACTGTCT | 8440
CGTCCTAGCGATTGAGCTGTGGGTGCCATGAGGAAG | 5950

Single results of other studies
Substance | tested on | test | test system | setting | scale | quantity | result
ATP5PB (Homo sapiens, UniProt P24539) | ATP5PO (Homo sapiens, UniProt P48047) | cross-linking MS | – | hits only | – | interaction screen | cross-linked
PhoQ, residues 284 288 289 292 302 303 SVHLDV | PhoP, residues 12 14 15 18 19 VHSCL (Escherichia coli, UniProt P23836) | Sort-seq, measured: YFP reporter | E. coli | PhoQ-PhoP variant library, added: 10 µM Mg2+ | baseline: high Mg2+ state, higher = stronger signaling | fold induction | 13.7
SRSF3 (Homo sapiens, UniProt P84103) | PRKD2 (Homo sapiens, UniProt Q9BZL6) | cross-linking MS | cell fractions | added: DSSO | – | cross-linked residues | K23 to T397

Some of these lines once more (study 2):
Sequence | fluorescence intensity [a.u.]
TTAAGTTTGTCACCGCTCGTGGCCGCTGTACTGTCT | 8440
